Published values from different studies.
Protocols differ between the studies behind these lines.

`Nc1ncc(-c2cc(-c3cnn(CC(F)(F)F)c3)ncc2F)nc1C(=O)NC1CNCC(F)C1` (centres unmarked) has a remaining binding of 86% (CSNK1D; KINOMEscan; 1 µM; baseline: DMSO control).
`CCOc1c(NC(=O)c2ccc(NC(=O)[C@H](Cc3c[nH]nn3)NC(=O)c3ccc(NC(=O)/C(C)=C/c4ccc(O)cc4)cc3)cc2)ccc(C(=O)Nc2ccc(C(=O)O)c(O)c2OC)c1O` has an MIC of 0.125 µg/mL (Micrococcus luteus; broth microdilution; DSM 1790).
For `COC1CN([C@H]2CC[C@H]([C@@]3(C)Oc4c(Cl)cc(C(=O)NCc5c(SC)cc(C)[nH]c5=O)c(C)c4O3)CC2)C1`, “log2 fold change” read 2.52 (RNA-seq, item: GLIS2; human, whole blood; dose not given, 24 h; baseline: pretreatment baseline).
For `CN[C@H](CC(C)C)C(=O)N[C@H]1C(=O)N[C@@H](CC(N)=O)C(=O)N[C@H]2C(=O)N[C@H]3C(=O)N[C@H](C(=O)N[C@H](C(=O)N[C@@H](CCCNC(=N)N)C(N)=O)c4cc(O)cc(O)c4-c4cc3ccc4O)[C@H](O)c3ccc(c(Cl)c3)Oc3cc2cc(c3O[C@@H]2O[C@H](CO)[C@@H](O)[C@H](O)[C@H]2O[C@H]2C[C@](C)(NCc3ccc(OCc4cn(CC(=O)N[C@H](C(=O)N[C@@H](CCN)C(=O)N[C@H]5CCNC(=O)[C@H]([C@@H](C)O)NC(=O)[C@H](CCN)NC(=O)[C@H](CCN)NC(=O)[C@H](CC(C)C)NC(=O)[C@@H](CC(C)C)NC(=O)[C@H](CCN)NC5=O)[C@@H](C)O)nn4)c(OC)c3)[C@H](O)[C@H](C)O2)Oc2ccc(cc2Cl)[C@H]1O`, the MIC was no more than 0.008 µg/mL (Staphylococcus simulans; broth microdilution; 22, cation-adjusted Mueller-Hinton broth; 20 to 24 h, 37 °C, 0.002% polysorbate 80).
`Cc1c(CN(C)C(=O)/C=C/c2cnc3c(c2)CC(N)C(=O)N3)oc2ccccc12` (centres unmarked) has an MIC of 8 µg/mL (Escherichia coli; broth microdilution; AR-0162).
`CC[C@H](C)[C@H](NC(=O)[C@H](CC(C)C)NC(=O)[C@H](CO)NC(=O)[C@H](Cc1ccc(O)cc1)NC(=O)CNC(=O)CNC(=O)[C@@H](NC(=O)[C@H](CCCCN)NC(=O)[C@H](Cc1ccc(O)cc1)NC(=O)[C@H](CO)NC(=O)[C@H](CC(N)=O)NC(=O)[C@H](CCCCN)NC(=O)[C@H](CCCCN)NC(=O)[C@H](CO)NC(=O)CNC(=O)[C@H](CCCCN)NC(=O)[C@H](CCCCN)NC(=O)[C@H](CCCNC(=N)N)NC(=O)[C@H](CCCNC(=N)N)NC(=O)[C@@H]1CCCN1)[C@@H](C)O)C(=O)N[C@@H](CO)C(=O)N[C@@H](CC(C)C)C(=O)NCC(=O)N[C@@H](CCCCN)C(=O)N1CCC[C@H]1C(=O)N[C@@H](CC(N)=O)C(=O)N[C@H](C(=O)N[C@@H](Cc1c[nH]cn1)C(=O)N[C@@H](CCCCN)C(=O)N[C@@H](C)C(=O)N1CCC[C@H]1C(=O)N[C@@H](Cc1ccc(O)cc1)C(=O)N[C@@H](CCSC)C(=O)N[C@@H](CCC(=O)O)C(=O)N[C@@H](CO)C(=O)N[C@@H](CC(C)C)C(=O)O)C(C)C` gave an MIC of 64 µg/mL (Micrococcus luteus; broth microdilution; ATCC 4698; 43 h, 37 °C, cation-adjusted Mueller-Hinton broth).
`COc1c(NC(=O)c2ccc(NC(=O)c3ccc(NC(=O)[C@H](CC#N)NC(=O)c4ccc(NC(=O)/C(C)=C/c5ccc(O)cc5)cc4)cc3)c(OC)c2O)ccc(C(=O)O)c1O` gave an MIC of 1 µg/mL (Micrococcus luteus; microbial growth, broth dilution; DSM1790).
With `COC1C=COC2(C)Oc3c(C)c(O)c4c(c3C2=O)C2=NC3(CCN(CC(C)C)CC3)NC2=C(NC(=O)C(C)=CC=CC(C)C(O)C(C)C(O)C(C)C(OC(=O)Nc2cnccn2)C1C)C4=O` (centres unmarked) the MIC was 0.48 µM (Mycobacteroides abscessus; microbial growth, agar dilution; ATCC19977).
`CC[C@H](C)[C@@H]1NC(=O)[C@@H]([C@@H](C)O)NC(=O)CNC(=O)[C@H](CC(=O)O)NC(=O)CNC(=O)[C@H](CC(=O)O)NC(=O)CNC(=O)[C@H]2CCCCN2C(=O)[C@@H](NC(=O)[C@H](CC(=O)O)NC(=O)/C=C/CCCCCCCCCC(C)C)CNC(=O)[C@@H]2CCCN2C1=O` has an MIC of 4 µg/mL (Staphylococcus simulans; broth microdilution; 22, Mueller-Hinton broth, Mg2+ 10 mg/L; 16 h, 30 °C, with: Ca2+ 1.0 mM).
For `CN[C@H](CC(C)C)C(=O)N[C@H]1C(=O)N[C@@H](CC(N)=O)C(=O)N[C@H]2C(=O)N[C@H]3C(=O)N[C@H](C(=O)N[C@H](C(=O)O)c4cc(O)cc(O)c4-c4cc3ccc4O)[C@H](O)c3ccc(c(Cl)c3)Oc3cc2cc(c3O[C@@H]2O[C@H](CO)[C@@H](O)[C@H](O)[C@H]2O[C@H]2C[C@](C)(N)[C@H](O)[C@H](C)O2)Oc2ccc(cc2Cl)[C@H]1O`, the MIC was 0.25 µg/mL (Micrococcus luteus; microbial growth, broth dilution; DSM1790; 48 h).
`N=C(N)NCCC[C@@H]1NC(=O)[C@H](CCCNC(=N)N)NC(=O)[C@@H](C(c2ccccc2)c2ccccc2)NC(=O)[C@H](Cc2c[nH]c3ccccc23)NC(=O)[C@@H](C(c2ccccc2)c2ccccc2)NC(=O)[C@@H](CCCNC(=N)N)NC(=O)[C@@H](CCCNC(=N)N)NC1=O` gave an MIC of 8 µg/mL (Paecilomyces variotii; MYA-3630).
For `C#CCOc1ccc(CN[C@@]2(C)C[C@H](O[C@H]3[C@H](Oc4c5cc6cc4Oc4ccc(cc4Cl)[C@@H](O)[C@@H](NC(=O)[C@@H](CC(C)C)NC)C(=O)N[C@@H](CC(N)=O)C(=O)N[C@H]6C(=O)N[C@H]4C(=O)N[C@H](C(=O)N[C@H](C(=O)N[C@@H](CCCNC(=N)N)C(N)=O)c6cc(O)cc(O)c6-c6cc4ccc6O)[C@H](O)c4ccc(c(Cl)c4)O5)O[C@H](CO)[C@@H](O)[C@@H]3O)O[C@@H](C)[C@H]2O)cc1OC`, the MIC was 0.125 µg/mL (Staphylococcus simulans; broth microdilution; 22, cation-adjusted Mueller-Hinton broth; 20 to 24 h, 37 °C, 0.002% polysorbate 80).
`CC[C@H](C)[C@H](N)C(=O)N1CCC[C@H]1C(=O)N[C@@H](Cc1ccccc1)C(=O)N[C@@H](Cc1c[nH]c2ccccc12)C(=O)N[C@@H](CCCNC(=N)N)C(=O)N[C@@H](Cc1c[nH]c2ccccc12)C(=O)N[C@@H](CC(C)C)C(=O)N[C@@H](CC(C)C)C(=O)N[C@@H](CCC(N)=O)C(=O)N[C@@H](CCCNC(=N)N)C(=O)N[C@@H](CC(C)C)C(=O)N1CCC[C@H]1C(=O)NCC(=O)O` gave an MIC of 8 µg/mL (Micrococcus luteus; broth microdilution; ATCC 4698; 43 h, 37 °C, cation-adjusted Mueller-Hinton broth).
`CN[C@H](CC(C)C)C(=O)N[C@H]1C(=O)N[C@@H](CC(N)=O)C(=O)N[C@H]2C(=O)N[C@H]3C(=O)N[C@H](C(=O)N[C@H](C(=O)O)c4cc(O)cc(O)c4-c4cc3ccc4O)[C@H](O)c3ccc(c(Cl)c3)Oc3cc2cc(c3O[C@@H]2O[C@H](CO)[C@@H](O)[C@H](O)[C@H]2O[C@H]2C[C@](C)(NCc3ccc(OCc4cn(CCCCC(=O)N[C@H](C(=O)N[C@@H](CCN)C(=O)N[C@H]5CCNC(=O)[C@H]([C@@H](C)O)NC(=O)[C@H](CCN)NC(=O)[C@H](CCN)NC(=O)[C@H](CC(C)C)NC(=O)[C@@H](CC(C)C)NC(=O)[C@H](CCN)NC5=O)[C@@H](C)O)nn4)c(OC)c3)[C@H](O)[C@H](C)O2)Oc2ccc(cc2Cl)[C@H]1O` has an MIC of 0.016 µg/mL (Staphylococcus simulans; broth microdilution; 22, cation-adjusted Mueller-Hinton broth; 20 to 24 h, 37 °C, 0.002% polysorbate 80).
The MIC of `C=C(NC(=O)c1csc(-c2nc3c(cc2O)-c2nc(cs2)C(=O)NC(C(C)O)C(=O)NC(=C(C)OC)c2nc(cs2)C(=O)NC2c4nc(cs4)C(=O)NC(COC(=O)c4c5c6c(cccc6n4O)COC(=O)C(OC4CC(C)(O)C(N(C)C)C(C)O4)C2OC5)c2nc-3cs2)n1)C(N)=O` (centres unmarked) is reported as 0.0078 µg/mL (Streptococcus pneumoniae; -25; used for PK-PD modelling).
The MIC of `COc1c(NC(=O)c2ccc(NC(=O)c3ccc(NC(=O)[C@H](Cc4c[nH]nn4)NC(=O)c4ccc(NC(=O)/C(C)=C/c5ccc(O)cc5)cc4)cc3)c(OC)c2O)ccc(C(=O)O)c1O` is reported as 0.5 µg/mL (Micrococcus luteus; microbial growth, broth dilution; DSM1790).
With `C#CCNC(=O)[C@H]1NC(=O)[C@H]2NC(=O)[C@H](NC(=O)[C@@H]3NC(=O)[C@H](CC(N)=O)NC(=O)[C@H](NC(=O)[C@@H](CC(C)C)NC)[C@H](O)c4ccc(c(Cl)c4)Oc4cc3cc(c4O[C@@H]3O[C@H](CO)[C@@H](O)[C@H](O)[C@H]3O[C@H]3C[C@](C)(N)[C@H](O)[C@H](C)O3)Oc3ccc(cc3Cl)[C@H]2O)c2ccc(O)c(c2)-c2c(O)cc(O)cc21` the MIC was 0.25 µg/mL (Staphylococcus simulans; broth microdilution; 22, cation-adjusted Mueller-Hinton broth; 20 to 24 h, 37 °C, 0.002% polysorbate 80).
`C=CC(=O)Nc1cccc(Cn2ncc3cnc(Nc4cnn(CCOC)c4)nc32)c1` — result for “percent of control”: 1.8% (DRAK2 human; binding, KINOMEscan; 100 nM; lower = stronger binding).
`COC1=CC(c2ccc[nH]2)=NC1=CNC12CC3CC(CC(C3)C1)C2.Cl` gave an MIC of 1 µg/mL (Candidozyma auris; broth microdilution; CDC AR Bank #0381; 24 h).
The MIC of `COc1nc(C(=O)Nc2ccc(C(=O)O)c(O)c2OC)ccc1NC(=O)c1ccc(NC(=O)[C@H](Cc2c[nH]nn2)NC(=O)c2ccc(NC(=O)/C(C)=C/c3ccc(O)cc3)cc2)cc1` is reported as 0.25 µg/mL (Micrococcus luteus; broth microdilution; DSM 1790).
`N=C(N)NCCC[C@@H]1NC(=O)[C@H](CCCNC(=N)N)NC(=O)[C@@H](CCCNC(=N)N)NC(=O)[C@H](C(c2ccccc2)c2ccccc2)NC(=O)[C@H](C(c2ccccc2)c2ccccc2)NC(=O)[C@H](C(c2ccccc2)c2ccccc2)NC(=O)[C@H](CCCNC(=N)N)NC1=O` has an MIC of 4 µg/mL (Paecilomyces variotii; MYA-3630).
`COc1c(NC(=O)c2ccc(NC(=O)[C@H](Cc3c[nH]nn3)NC(=O)c3ccc(NC(=O)/C(C)=C/c4ccc(O)cc4)cc3)cc2)ccc(C(=O)Nc2ccc(C(=O)O)c(O)c2)c1O` has an MIC of 0.5 µg/mL (Micrococcus luteus; broth microdilution; DSM 1790).
For `CC1C=CC=CC(C)C2C=CC3CC(C)(O)C(Cl)C(C)C3C2C(=O)C(Cl)(Cl)C(=O)C(C)C(=O)O1` (centres unmarked), the MIC was 0.1 µg/mL (Staphylococcus aureus; MRSA clinical isolate; resistant: OXA,CLI,DOX,ERY,GEN,SXT,TET).

Excerpt of the above:
`COc1c(NC(=O)c2ccc(NC(=O)[C@H](Cc3c[nH]nn3)NC(=O)c3ccc(NC(=O)/C(C)=C/c4ccc(O)cc4)cc3)cc2)ccc(C(=O)Nc2ccc(C(=O)O)c(O)c2)c1O` has an MIC of 0.5 µg/mL (Micrococcus luteus; broth microdilution; DSM 1790).
